Measurements collected from several papers.
Numbered parts are unrelated; each lists some results of a single study.
Sequence of UniProt Q9HAZ1 (whole entry, looked up): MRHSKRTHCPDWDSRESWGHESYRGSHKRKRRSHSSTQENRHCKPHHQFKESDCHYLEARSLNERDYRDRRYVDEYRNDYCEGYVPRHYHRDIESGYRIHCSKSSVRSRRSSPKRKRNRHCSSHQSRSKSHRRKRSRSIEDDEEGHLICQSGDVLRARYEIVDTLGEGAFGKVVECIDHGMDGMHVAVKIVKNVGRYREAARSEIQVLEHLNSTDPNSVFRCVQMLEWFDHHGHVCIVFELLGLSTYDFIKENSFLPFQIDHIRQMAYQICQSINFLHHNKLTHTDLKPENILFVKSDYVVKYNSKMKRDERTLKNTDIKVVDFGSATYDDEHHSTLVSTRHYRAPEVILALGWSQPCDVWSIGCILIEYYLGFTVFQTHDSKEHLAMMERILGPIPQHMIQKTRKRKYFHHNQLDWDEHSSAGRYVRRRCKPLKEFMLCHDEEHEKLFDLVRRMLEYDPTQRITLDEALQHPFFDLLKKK
Sequence of UniProt Q86Y07 (whole entry, looked up): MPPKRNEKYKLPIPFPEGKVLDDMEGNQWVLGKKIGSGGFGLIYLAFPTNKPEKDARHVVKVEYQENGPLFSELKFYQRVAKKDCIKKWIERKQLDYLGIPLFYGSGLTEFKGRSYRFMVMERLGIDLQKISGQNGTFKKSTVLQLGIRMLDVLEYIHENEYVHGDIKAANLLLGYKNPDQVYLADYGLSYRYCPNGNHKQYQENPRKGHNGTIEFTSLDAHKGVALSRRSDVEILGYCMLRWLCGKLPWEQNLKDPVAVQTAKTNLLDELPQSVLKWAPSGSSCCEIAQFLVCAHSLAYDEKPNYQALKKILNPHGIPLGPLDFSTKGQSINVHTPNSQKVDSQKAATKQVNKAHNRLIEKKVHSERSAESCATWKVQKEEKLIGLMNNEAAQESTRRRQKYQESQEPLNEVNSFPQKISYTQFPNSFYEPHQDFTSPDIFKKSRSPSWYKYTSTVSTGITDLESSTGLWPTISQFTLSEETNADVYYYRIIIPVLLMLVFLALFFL
Sequence of UniProt O75676 (whole entry, looked up): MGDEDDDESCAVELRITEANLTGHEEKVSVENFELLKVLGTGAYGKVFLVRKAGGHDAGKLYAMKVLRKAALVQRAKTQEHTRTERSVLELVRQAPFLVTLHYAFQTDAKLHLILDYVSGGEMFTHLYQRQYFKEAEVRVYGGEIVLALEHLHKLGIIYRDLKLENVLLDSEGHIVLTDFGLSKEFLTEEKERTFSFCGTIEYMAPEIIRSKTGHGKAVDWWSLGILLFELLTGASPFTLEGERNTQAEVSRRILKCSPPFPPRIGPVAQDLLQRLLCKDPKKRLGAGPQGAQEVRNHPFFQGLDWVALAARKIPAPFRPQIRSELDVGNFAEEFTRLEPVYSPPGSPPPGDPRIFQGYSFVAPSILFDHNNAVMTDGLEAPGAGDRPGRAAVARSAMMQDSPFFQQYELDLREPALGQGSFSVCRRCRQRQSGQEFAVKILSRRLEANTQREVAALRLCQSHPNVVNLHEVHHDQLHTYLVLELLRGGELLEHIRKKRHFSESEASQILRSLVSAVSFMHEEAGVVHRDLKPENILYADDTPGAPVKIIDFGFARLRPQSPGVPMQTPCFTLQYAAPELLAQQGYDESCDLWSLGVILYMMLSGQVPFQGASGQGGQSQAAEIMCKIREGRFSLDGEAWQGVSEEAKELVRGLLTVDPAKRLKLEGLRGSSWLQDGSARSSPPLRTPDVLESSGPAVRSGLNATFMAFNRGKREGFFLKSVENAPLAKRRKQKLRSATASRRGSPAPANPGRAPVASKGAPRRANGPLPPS
Sequence of UniProt Q6P2M8 (whole entry, looked up): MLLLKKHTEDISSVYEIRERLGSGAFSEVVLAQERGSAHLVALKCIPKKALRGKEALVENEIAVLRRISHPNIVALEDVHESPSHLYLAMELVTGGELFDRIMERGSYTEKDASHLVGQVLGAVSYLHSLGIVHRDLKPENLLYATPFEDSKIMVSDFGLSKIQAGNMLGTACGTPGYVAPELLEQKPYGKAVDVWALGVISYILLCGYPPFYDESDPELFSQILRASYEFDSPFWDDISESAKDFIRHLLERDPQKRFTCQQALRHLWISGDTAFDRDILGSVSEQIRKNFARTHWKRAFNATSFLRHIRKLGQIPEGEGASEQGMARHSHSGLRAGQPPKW
Sequence of UniProt Q6XUX3 (whole entry, looked up): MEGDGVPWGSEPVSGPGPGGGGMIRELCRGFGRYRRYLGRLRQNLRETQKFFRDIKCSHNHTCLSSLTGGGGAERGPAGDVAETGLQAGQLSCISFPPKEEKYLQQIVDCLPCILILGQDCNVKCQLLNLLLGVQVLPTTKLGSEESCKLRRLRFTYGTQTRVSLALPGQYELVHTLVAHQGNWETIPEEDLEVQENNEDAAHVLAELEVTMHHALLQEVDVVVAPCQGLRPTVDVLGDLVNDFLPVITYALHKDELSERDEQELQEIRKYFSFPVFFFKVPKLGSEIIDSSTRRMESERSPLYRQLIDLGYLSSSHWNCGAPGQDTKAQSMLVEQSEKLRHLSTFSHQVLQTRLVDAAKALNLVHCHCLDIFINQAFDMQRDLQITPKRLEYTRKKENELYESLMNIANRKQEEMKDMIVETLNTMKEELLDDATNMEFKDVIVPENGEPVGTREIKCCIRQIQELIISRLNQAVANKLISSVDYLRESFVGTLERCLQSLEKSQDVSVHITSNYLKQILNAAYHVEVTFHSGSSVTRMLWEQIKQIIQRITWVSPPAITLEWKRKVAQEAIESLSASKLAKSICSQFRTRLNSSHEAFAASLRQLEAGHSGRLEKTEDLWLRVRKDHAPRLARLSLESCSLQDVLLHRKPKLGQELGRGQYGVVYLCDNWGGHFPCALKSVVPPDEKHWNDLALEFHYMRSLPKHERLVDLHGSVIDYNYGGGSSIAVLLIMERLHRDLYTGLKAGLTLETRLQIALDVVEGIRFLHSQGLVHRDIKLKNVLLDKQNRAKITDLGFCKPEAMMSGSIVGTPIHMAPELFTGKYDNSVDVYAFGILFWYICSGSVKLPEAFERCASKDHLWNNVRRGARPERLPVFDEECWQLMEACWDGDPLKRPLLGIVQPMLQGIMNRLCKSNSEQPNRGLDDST
Sequence of UniProt P11802 (whole entry, looked up): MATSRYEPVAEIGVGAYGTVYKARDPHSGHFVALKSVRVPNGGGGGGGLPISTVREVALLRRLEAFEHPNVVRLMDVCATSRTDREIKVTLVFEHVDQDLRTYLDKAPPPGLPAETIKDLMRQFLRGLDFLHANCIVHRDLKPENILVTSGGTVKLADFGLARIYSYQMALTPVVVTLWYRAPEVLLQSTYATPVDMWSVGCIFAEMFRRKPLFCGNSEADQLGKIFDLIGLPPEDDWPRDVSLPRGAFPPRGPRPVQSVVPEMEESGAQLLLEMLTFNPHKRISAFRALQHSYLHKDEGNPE
Sequence of UniProt P57059 (whole entry, looked up): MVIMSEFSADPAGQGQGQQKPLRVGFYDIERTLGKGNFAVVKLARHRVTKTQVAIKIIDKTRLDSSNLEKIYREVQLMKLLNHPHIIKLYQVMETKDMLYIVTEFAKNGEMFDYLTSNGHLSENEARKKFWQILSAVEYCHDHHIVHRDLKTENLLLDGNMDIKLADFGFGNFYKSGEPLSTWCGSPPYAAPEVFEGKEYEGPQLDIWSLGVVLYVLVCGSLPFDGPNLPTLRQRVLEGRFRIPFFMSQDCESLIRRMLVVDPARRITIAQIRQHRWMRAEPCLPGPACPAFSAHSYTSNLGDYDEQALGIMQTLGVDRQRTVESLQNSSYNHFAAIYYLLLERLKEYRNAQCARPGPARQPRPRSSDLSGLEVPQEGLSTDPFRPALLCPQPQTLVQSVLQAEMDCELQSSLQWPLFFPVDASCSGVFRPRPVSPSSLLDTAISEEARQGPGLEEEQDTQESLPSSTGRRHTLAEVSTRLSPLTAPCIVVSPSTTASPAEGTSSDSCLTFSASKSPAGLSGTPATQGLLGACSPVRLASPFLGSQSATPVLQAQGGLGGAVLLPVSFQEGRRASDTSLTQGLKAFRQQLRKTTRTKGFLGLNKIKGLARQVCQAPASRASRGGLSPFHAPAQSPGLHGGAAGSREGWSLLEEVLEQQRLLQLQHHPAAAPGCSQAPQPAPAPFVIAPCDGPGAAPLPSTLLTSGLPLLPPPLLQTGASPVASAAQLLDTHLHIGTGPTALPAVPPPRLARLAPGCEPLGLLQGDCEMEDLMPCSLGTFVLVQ
Sequence of UniProt P51817 (whole entry, looked up): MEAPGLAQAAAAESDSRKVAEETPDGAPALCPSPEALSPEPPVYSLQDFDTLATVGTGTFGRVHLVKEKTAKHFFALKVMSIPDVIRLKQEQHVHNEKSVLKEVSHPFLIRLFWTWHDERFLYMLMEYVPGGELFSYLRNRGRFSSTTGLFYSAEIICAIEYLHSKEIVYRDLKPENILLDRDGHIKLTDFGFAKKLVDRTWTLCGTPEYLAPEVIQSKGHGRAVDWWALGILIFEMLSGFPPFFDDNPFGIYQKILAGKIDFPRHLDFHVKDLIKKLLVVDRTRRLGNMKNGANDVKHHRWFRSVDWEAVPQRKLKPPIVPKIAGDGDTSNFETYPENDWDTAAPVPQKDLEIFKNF

Block 1
Target: RING finger protein unkempt homolog, zinc fingers 1-6, GST-SBP tag (UNK, Homo sapiens, UniProt Q9C0B0, residues 30-357)
Technique: RNA Bind-n-Seq
Form: RNA
Matrix: in vitro
Tested at: not given
Setting: RNA with constant flanks, ends assumed
Baseline: input RNA pool
Reading: higher = stronger binding
Quantity: bound/input enrichment
Constant ends, left off below: GGGAGUUCUACAGUCCGACGAUC … CAACAGAGGAUUGAGCAUCA
Residues (chain): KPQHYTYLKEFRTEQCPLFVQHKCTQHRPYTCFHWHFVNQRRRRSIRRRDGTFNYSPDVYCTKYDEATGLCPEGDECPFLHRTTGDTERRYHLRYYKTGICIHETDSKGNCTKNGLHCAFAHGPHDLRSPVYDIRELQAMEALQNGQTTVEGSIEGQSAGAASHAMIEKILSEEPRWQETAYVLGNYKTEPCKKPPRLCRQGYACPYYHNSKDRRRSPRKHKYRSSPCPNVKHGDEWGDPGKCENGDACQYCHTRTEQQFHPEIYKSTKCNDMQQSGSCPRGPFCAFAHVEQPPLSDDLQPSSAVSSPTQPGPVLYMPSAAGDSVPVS
AUGGAGAUGUAUCAACCUAGUGCUGUGGUAUUACAGUGUGGUGCAGACUCAUUAUCUGGUGACCGACUGGGUUGUUUCAAUCUAACAGUCAAAGGUCAUGCUAAAUGUGUAGAAGUUGUA: 0.33 ratio
ACCAGGGAUGAGACCAACUAUGGAAUUCCACAGCGUGCUCUGCGGGGUCACUCCCACUUUGUCCGUGAUGUGGUUAUCUCCUCAGAUGGCCAGUUUGCCCUCUCAGGCUCCUGGGAUGGA: 0.0475 ratio
GCCGCACUCGGACCCGGGAAGCCGUGCUCUCUCCCCGAUUCUCCGCGGAGGACCCCCGGAAAAUUGUGCAAUGAAUGGUGACACUCGGGCCGCAGUGGUGACCUCACCACCUCCAACCAC: 0.0985 ratio
CUCUAUGGGCCUCGCAGAGUUGAAAUAAUGGAAGAGGAAAGUGAACAGUAAUCUUCAUUUCCGUAUUUAUGCUUAGAUGUGAAAAUAAAUGUUAUUUGUUGAUCAUUUCUAUAAUCCAGA: 0.171 ratio
AAUACAUUUGUUCCAAUGGGGAGCUUGGAAGAUGGCGUUCCCAGAAAGUAUUUUAAUAUCAACCGACCACAGCCAAAGCCUUAAAUCAAACCCACACACAACUGAAAAUUGCCUCCUCCA: 0.407 ratio
UUUCUUUCUUUUUUUUUUUUUUUUGAGAAGUCACCUGUUUUCCUUUUACAGGUGACUGAUUACCGUAUUGGCUUUCAAGAUGUUCCUCAGGCUGGGCGUGGGGGCUCACGCCUUUAAUGC: 0.721 ratio
AGAGAACAACACAUCCGGAGAGACAAAGCCACCAGCAACAUCUGCACGGCUCAGGCCCUUUCCGCCAACAUGGCUGCCAUGUUCGCCAUUUACCAUGGAUCCCAGGGGCUGAAGCACAUU: 0.134 ratio
AAGUCAGCAGCUGAGGUGGAGGAAGCACCUUCCCCUGAAGACAAUGUCUAUUUCGGAACUACCCGUGACGAUUCGGAUAUUGUUACACUUGAACCACCUAAGCUGGAAGAAAUGGGGAAC: 0.13 ratio

Block 2
Structure (SMILES): c1ccc(-c2[nH]ncc2-c2ccnc3ccccc23)nc1
Effect on: enzyme activity
Action: inhibitor
Tested at: 0.5 µM
Baseline: control
Quantity: remaining activity
PLK3 (Homo sapiens, UniProt Q9H4B4): 91.7%
PNCK (Homo sapiens, UniProt Q6P2M8): 98.3%
TLK2 (Homo sapiens, UniProt Q86UE8): 98.6%
CLK4 (Homo sapiens, UniProt Q9HAZ1): 101%
RPS6KA4 (Homo sapiens, UniProt O75676): 87.2%
MAPK1 (Homo sapiens, UniProt P28482): 108%
CLK3 (Homo sapiens, UniProt P49761): 105%
TXK (Homo sapiens, UniProt P42681): 89.1%
GRK4 (Homo sapiens, UniProt P32298): 94.3%
MARK4 (Homo sapiens, UniProt Q96L34): 105%
AKT2 (Homo sapiens, UniProt P31751): 93%
KDR (Homo sapiens, UniProt P35968): 103%
NEK3 (Homo sapiens, UniProt P51956): 90.2%
PRKG2 (Homo sapiens, UniProt Q13237): 89.2%

Block 3
Compound: O=C(NC[C@@H]1[C@H]2CN(C(=O)OCc3cc(C(F)(F)F)cc(C(F)(F)F)c3)C[C@@H]12)c1ccc2[nH]nnc2c1
Tested at: 1 µM
Quantity: remaining binding
Aurora kinase B (AURKB, Homo sapiens, UniProt Q96GD4); cell-free assay, competition with immobilised ligand: 84%
RIOK3 (Homo sapiens, UniProt O14730); cell-free assay, competition with immobilised ligand: 94%
CILK1 (Homo sapiens, UniProt Q9UPZ9); cell-free assay, competition with immobilised ligand: 100%
PRKX (Homo sapiens, UniProt P51817); cell-free assay, competition with immobilised ligand: 86%
CAMK4 (Homo sapiens, UniProt Q16566); cell-free assay, competition with immobilised ligand: 100%
DSTYK (Homo sapiens, UniProt Q6XUX3); cell-free assay, competition with immobilised ligand: 82%
TNNI3K (Homo sapiens, UniProt Q59H18); cell-free assay, competition with immobilised ligand: 80%
VRK2 (Homo sapiens, UniProt Q86Y07); cell-free assay, competition with immobilised ligand: 100%
Cyclin-dependent kinase 4, with cyclin D3 (CDK4, Homo sapiens, UniProt P11802); cell-free assay, competition with immobilised ligand: 97%
SIK1 (Homo sapiens, UniProt P57059); competition binding: 100%
CLK2 (Homo sapiens, UniProt P49760); cell-free assay, competition with immobilised ligand: 86%

Block 4
Target: Interferon regulatory factor 7, full length, phosphomimetic (IRF7, Homo sapiens, UniProt Q92985, residues 1-503, S101K/S471D/S472D/S475D/S476D/S477D/S483D/S484D/S487D)
Sequence of UniProt Q92985 (whole entry, unmodified, looked up): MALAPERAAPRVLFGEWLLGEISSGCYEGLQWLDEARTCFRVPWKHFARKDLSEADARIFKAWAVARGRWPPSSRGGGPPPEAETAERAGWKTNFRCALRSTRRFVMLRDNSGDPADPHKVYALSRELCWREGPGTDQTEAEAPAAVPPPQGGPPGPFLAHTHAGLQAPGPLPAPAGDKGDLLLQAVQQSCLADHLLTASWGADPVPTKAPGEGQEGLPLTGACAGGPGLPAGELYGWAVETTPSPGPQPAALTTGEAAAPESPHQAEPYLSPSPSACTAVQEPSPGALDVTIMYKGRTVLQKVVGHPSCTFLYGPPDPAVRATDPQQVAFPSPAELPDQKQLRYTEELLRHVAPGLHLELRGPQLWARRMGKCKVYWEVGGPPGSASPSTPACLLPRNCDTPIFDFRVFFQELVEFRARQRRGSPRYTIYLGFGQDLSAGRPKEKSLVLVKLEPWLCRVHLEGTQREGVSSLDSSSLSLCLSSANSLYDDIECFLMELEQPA
Technique: protein-binding microarray
Form: double-stranded DNA, one strand shown
Matrix: in vitro
Tested at: 250 nM
Setting: 60-bp whole probe
With: salmon DNA 0.4 mg/ml
Baseline: random background probes
Reading: higher = stronger binding
Quantity: log fluorescence
Constant ends, left off below: GCCTAGCAC … GTGCTAGGTCTTGATTCGCTTGACGCTGCTG
TGGCTTTGCCTTTTGCTTTA: -0.586 z-score
TTACAACTGAGTTTCGATTA: 7.98 z-score
TTAGGACTGCTTCTCATTTA: 0.752 z-score
TTAGAAATCAGTATCGATTA: 0.679 z-score
GACGCACTGAGACTGGAGAC: -0.233 z-score
TTAGGTATCGGTATTGGTTA: 1.47 z-score
TTATGTTTCCTTTTCCTTTA: 4.49 z-score
TTGTGTTTTCATTTTATGAC: 2.14 z-score
